# Measurements collected from several papers.
# Each numbered part is a random draw from the data of one study; scales do not carry over between parts.

# Set 1 — method: protein binding microarray; molecule type: double-stranded DNA, one strand shown; medium: in vitro; concentration: not given; relative to: not given; direction: higher = stronger binding
# Target: Histone acetyltransferase KAT6A, both winged helices, GST fusion (KAT6A, Homo sapiens, UniProt Q92794, residues 1-181)
# Setting: 8-mer, flanks averaged, mean of 2 arrays, mostly near background
# Residues (chain): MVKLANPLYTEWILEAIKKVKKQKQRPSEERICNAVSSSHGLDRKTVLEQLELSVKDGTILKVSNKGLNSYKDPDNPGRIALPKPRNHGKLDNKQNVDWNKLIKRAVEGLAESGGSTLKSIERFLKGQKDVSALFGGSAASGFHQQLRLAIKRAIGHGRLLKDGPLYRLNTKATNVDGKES
Sequence,E-score
CATATAGG,-0.0882
AGCAGACC,-0.0481
ACGCTTAA,0.0573
GTCCTAGA,-0.00037
AGCTGTAC,-0.0588
CAGCCGGC,0.312

# Set 2 — method: RNA Bind-n-Seq; molecule type: RNA; medium: in vitro; concentration: 365 nM; relative to: no-protein control; direction: higher = stronger binding
# Target: RNA binding protein fox-1 homolog 2, RRM domain, GST-SBP tag (RBFOX2, Homo sapiens, UniProt O43251-10, residues 100-194)
# Setting: natural RNA segment, single round, ends assumed
Sequence,RBNS enrichment (R)
GGGAGUUCUACAGUCCGACGAUCGCCAACACACGGCCCUGCCCCUCUAGGCACCCACCUGCCUCCCACGGACUCCUGGGCAGCACCCAGCCUGACAGUGUCGAGUAUAUUAUUAUUAAUAUUAUUAUGACUUUUGGAAUUCUCGGGUGCCAA,0.469
GGGAGUUCUACAGUCCGACGAUCUGACUGAAAUUGCAUCAGUGAUCAUAAUGAGGUUUGUUAAAACGAUAGCUAUAUUCAAAAUGUCUAUAUGUUUAUUUGGACUUUUGAGGUUAAAGACAGUCAUAUAAACGUGGAAUUCUCGGGUGCCAA,0.497
GGGAGUUCUACAGUCCGACGAUCAAUAGAAACCAGCAAGUGUAUACUGUGAUUUAUUUUAAUGUAUUCUUAAGGACAGAAUGGAAAUUCUUUAAAAAAAAUUUUUUUUCCGACCUUCAAUUCAAGGGGUCAUUUGGAAUUCUCGGGUGCCAA,0.791

# Set 3 — method: universal PBM; molecule type: double-stranded DNA, one strand shown; medium: in vitro; concentration: not given; direction: higher = stronger binding
# Target: Sal-like protein 4, full length isoform B (SALL4, Homo sapiens, UniProt Q9UJQ4-2, residues 1-616)
# Setting: 8-mer, flanks averaged, mean of replicates
# Construct (chain): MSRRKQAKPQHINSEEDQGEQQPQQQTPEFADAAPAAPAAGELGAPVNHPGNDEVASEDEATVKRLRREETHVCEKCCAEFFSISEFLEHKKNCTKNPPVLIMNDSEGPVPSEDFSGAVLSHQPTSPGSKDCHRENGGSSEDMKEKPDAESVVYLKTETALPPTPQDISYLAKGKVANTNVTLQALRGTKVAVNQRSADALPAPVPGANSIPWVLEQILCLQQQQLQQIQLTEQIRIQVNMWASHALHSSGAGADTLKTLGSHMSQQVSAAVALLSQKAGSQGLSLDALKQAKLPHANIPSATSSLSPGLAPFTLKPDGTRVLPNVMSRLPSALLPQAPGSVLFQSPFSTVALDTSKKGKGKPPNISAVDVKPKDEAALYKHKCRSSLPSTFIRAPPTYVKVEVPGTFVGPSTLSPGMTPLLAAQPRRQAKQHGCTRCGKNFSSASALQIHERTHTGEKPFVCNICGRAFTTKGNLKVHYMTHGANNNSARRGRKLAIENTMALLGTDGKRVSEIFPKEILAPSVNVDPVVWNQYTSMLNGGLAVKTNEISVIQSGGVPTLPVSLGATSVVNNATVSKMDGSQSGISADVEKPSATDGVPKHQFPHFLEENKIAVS
Sequence,E-score
AGGGAACT,-0.294
CCGACCGA,-0.333
CCAAGGCA,-0.18
AAAATGCA,0.181

# Single results of other studies
Substance,target,assay,system,conditions,scale,measurement,value
"PhoQ, residues 284 288 289 292 302 303 SQSLSM","PhoP, residues 12 14 15 18 19 SEGLL (Escherichia coli, UniProt P23836)","Sort-seq, refers to: YFP reporter",E. coli,"PhoQ-PhoP variant library, together with: 10 µM Mg2+","relative to: high Mg2+ state, higher = stronger signaling",fold induction,11.1

# Repeated from above (set 1):
Sequence,E-score
ACGCTTAA,0.0573
GTCCTAGA,-0.00037
